Measurements collected from several papers.
Each numbered part is a random draw from the data of one study; scales do not carry over between parts. Substitutions count along the parent as printed.

Set 1 — method: RNA Bind-n-Seq; form: RNA; sample: in vitro; concentration: 365 nM; reference: no-protein control; reading: higher = stronger binding
Target: RNA binding protein fox-1 homolog 2, RRM domain, GST-SBP tag (RBFOX2, Homo sapiens, UniProt O43251-10, residues 100-194)
Notes: natural RNA segment, single round, ends assumed
Target sequence (chain): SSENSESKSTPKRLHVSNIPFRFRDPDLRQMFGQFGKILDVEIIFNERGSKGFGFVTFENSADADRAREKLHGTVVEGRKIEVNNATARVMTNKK
| Strand | RBNS enrichment (R) |
| --- | --- |
| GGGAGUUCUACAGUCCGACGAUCACACUGCCGCGCCCAGCUAAUUUUUUGUAUUUUUUAGUAGAGACAGGGUUUCACUGUGUUGCCCAGGCUGGUCUCAAACUCCUGAGCUCAGGCAAUCUGCCCGCCUUGGCUGGAAUUCUCGGGUGCCAA | 0.632 |
| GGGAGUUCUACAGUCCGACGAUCCUGCCAGCAAUGGUUCCAACUCGGAGGCAGCGCCUCUUGGUCCCCAUUUCUGUAUAGCAGGCGUGUGUGUGUGUGUCGAGGUUUUUUAUUUUUUGCUUAAUCAAACUCCAUGGAAUUCUCGGGUGCCAA | 0.342 |
| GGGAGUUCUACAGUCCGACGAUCUUUGGCAUUCUUACUGGAGCUGCAGACAGAAAUCUACAAAGACAAAAGUAAACAAAAUUAAGUUAUUAUUCCACUGUUAGGAAUGGAAAUAAACUUGUGAAGUCUGUUUAUGGAAUUCUCGGGUGCCAA | 0.439 |
| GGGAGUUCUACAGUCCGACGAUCAAAAGAAAAGCAAGUUUUAUAUAUAUACAUAUAUAUAUAAAGAUCUACAAUUAAAAGAAUGUUUUGAUAAUCCAGGGGCUGGUUAGUGAGCCCGCUGGCCUCACUGGGGUUGGAAUUCUCGGGUGCCAA | 2.53 |
| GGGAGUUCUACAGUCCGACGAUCAUGUCUCUCAGAAUUCUUCAGGUGGAAAAACAUCUGAAAGCCACGUUCCUUACUGCAGAAUAGCAUAUAUAUCGCUUAAUCUUAAAUUUAUUAGAUAUGAGUUGUUUUCAUGGAAUUCUCGGGUGCCAA | 0.371 |
| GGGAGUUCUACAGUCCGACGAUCCAAAGUAAGGGUUUUUUUUUUUAGCUUCCACUCUUCCGCAGACUUGGUCAUCGACCUAUUUUUGUUGAAGAAUGAAAGGCAAUGACAAGUUUAACAUAUACAAAUUCGUGUGGAAUUCUCGGGUGCCAA | 0.635 |
| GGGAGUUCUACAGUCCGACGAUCAAUGUUAGUUUGGAUAAAAAUAAUUAGCAUUUAGUAAUUGCCUUGUUUCUGAGUUUAGCCUAUAUAAACAUACUAUAUGUGCCCAGAGGUCUACAGUCACCCUUUUUUAUUGGAAUUCUCGGGUGCCAA | 1.91 |
| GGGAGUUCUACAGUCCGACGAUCAGGAGGGGGAGUGGAGGGGCAUAGCCUUUCCCUAAUUCUGCCUUAAAUAAAACUGCAUUGCUGAUUCGUGAUGAUUCCUUACUUCGUGCAUAGAGGGGAGGCGGGAGCUGUGGAAUUCUCGGGUGCCAA | 0.564 |

Set 2 — method: universal PBM; form: double-stranded DNA, one strand shown; sample: in vitro; concentration: not given; reading: higher = stronger binding
Target: Sal-like protein 4, full length isoform B (SALL4, Homo sapiens, UniProt Q9UJQ4-2, residues 1-616)
Notes: 8-mer, flanks averaged, mean of replicates
Target sequence (chain): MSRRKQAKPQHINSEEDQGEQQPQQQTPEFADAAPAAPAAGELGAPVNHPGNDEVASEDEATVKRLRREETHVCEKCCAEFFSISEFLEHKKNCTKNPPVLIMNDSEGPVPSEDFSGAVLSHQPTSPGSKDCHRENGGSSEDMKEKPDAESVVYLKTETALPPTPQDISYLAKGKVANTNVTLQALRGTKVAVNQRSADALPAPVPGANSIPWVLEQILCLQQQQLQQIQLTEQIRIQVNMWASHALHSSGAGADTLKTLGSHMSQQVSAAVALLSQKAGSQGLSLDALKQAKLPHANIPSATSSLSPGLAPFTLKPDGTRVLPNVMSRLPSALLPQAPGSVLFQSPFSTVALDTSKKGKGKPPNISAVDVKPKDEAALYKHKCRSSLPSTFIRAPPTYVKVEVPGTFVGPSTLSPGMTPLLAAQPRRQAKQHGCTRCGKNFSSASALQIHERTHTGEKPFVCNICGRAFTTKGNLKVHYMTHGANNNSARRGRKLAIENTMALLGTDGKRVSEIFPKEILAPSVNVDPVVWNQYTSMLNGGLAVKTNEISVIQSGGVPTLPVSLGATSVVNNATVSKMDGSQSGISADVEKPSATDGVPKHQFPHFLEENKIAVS
| Strand | E-score |
| --- | --- |
| ACTGCGCT | 0.0253 |
| GCGCGTCC | -0.364 |
| AGAGAGGG | -0.212 |
| AGGTCCAG | -0.177 |
| AGGCACCA | -0.158 |
| AGGGCTTA | -0.0211 |
| ACACGGAT | 0.0372 |
| CTCATTTC | 0.137 |

Set 3 — target: CCNA2, cyclin fold, Cln2 fusion (human); method: yeast growth competition, sequencing; sample: yeast; notes: weak parent motif; reference: not given; reading: higher = stronger binding
Starting sequence: SLBP docking peptide (human); ARYKRKLLINDFG
| Change | normalised enrichment score |
| --- | --- |
| D11L | 1.97 |
| N10L | 2.09 |
| D11E | 1.79 |
| N10F | 1.74 |
| K4V | 1.32 |
| A1F | -0.449 |

Single results of other studies
| Substance | target | assay | test system | setting | scale | endpoint | result |
| --- | --- | --- | --- | --- | --- | --- | --- |
| PhoQ, residues 284 288 289 292 302 303 ASHLAV | PhoP, residues 12 14 15 18 19 STWGI (Escherichia coli, UniProt P23836) | Sort-seq, refers to: YFP reporter | E. coli | PhoQ-PhoP variant library, with: 10 µM Mg2+ | reference: high Mg2+ state, higher = stronger signaling | fold induction | 4.27 |

A few entries again (set 2):
| Strand | E-score |
| --- | --- |
| ACACGGAT | 0.0372 |
| GCGCGTCC | -0.364 |
| AGAGAGGG | -0.212 |
